# Assay results of several laboratories.
# Numbered parts are unrelated; each lists some results of a single study. Substitutions count along the parent as printed.
# UniProt P11309, sequence (whole entry, looked up): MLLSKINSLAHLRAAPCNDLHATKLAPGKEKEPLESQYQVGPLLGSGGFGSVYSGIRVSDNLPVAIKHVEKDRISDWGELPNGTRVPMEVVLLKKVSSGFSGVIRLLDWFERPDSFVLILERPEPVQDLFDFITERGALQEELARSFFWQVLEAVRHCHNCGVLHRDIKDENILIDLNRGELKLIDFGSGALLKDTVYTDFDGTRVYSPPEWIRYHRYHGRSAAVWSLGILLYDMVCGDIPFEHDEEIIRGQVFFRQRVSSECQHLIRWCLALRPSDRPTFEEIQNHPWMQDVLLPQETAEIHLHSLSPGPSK
# UniProt P23458, sequence (whole entry, looked up): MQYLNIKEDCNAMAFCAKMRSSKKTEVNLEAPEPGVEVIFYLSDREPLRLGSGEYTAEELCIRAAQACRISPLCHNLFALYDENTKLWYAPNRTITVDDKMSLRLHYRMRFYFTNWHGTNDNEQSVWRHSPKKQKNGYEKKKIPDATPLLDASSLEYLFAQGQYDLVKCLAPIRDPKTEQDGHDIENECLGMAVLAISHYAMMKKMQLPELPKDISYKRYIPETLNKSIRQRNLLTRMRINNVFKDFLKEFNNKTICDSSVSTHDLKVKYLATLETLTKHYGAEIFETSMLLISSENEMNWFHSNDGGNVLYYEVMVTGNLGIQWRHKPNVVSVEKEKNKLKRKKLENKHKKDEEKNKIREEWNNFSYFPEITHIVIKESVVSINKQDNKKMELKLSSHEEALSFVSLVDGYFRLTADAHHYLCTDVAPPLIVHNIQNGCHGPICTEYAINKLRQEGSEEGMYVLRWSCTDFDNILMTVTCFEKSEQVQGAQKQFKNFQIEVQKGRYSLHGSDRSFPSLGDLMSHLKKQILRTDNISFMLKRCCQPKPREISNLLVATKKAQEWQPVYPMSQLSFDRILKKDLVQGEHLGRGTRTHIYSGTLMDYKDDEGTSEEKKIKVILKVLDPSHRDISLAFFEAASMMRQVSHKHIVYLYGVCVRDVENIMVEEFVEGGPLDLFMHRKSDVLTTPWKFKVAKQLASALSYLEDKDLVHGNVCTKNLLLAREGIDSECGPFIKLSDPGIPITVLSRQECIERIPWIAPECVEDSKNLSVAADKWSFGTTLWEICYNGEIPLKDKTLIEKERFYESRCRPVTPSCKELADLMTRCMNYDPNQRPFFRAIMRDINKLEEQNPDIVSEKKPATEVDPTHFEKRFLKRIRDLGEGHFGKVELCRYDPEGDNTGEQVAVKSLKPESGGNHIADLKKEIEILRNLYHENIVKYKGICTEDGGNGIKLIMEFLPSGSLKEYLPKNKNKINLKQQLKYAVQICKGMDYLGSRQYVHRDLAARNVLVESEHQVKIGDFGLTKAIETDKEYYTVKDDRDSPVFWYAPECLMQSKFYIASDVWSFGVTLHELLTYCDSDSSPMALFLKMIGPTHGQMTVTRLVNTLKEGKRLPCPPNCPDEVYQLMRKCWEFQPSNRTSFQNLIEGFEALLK
# UniProt P07333, sequence (whole entry, looked up): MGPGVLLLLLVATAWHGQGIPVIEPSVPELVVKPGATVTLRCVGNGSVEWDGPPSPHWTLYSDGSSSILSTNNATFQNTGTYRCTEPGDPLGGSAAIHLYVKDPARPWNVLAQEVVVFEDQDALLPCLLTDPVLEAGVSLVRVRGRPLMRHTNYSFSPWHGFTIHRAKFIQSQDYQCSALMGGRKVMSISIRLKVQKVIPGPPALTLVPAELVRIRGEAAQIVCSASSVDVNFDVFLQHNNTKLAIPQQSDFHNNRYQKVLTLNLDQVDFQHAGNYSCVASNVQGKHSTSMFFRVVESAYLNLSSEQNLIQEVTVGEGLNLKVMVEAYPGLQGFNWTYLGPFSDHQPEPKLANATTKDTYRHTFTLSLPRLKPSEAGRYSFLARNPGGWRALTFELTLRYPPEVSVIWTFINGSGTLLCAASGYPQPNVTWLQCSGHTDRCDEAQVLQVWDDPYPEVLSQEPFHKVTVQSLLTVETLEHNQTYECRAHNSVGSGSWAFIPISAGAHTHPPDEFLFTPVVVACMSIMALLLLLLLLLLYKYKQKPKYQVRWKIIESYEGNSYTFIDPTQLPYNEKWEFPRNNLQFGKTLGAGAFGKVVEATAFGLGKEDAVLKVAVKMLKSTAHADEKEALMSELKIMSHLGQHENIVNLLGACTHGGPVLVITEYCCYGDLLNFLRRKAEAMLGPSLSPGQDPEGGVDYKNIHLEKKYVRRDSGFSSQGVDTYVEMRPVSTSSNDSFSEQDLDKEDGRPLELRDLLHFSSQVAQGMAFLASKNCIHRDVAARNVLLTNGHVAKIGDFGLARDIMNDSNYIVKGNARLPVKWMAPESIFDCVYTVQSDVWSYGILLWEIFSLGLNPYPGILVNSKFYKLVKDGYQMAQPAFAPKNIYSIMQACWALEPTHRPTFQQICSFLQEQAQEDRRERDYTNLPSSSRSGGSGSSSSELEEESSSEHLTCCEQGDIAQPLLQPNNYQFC
# UniProt Q9UBF8, sequence (whole entry, looked up): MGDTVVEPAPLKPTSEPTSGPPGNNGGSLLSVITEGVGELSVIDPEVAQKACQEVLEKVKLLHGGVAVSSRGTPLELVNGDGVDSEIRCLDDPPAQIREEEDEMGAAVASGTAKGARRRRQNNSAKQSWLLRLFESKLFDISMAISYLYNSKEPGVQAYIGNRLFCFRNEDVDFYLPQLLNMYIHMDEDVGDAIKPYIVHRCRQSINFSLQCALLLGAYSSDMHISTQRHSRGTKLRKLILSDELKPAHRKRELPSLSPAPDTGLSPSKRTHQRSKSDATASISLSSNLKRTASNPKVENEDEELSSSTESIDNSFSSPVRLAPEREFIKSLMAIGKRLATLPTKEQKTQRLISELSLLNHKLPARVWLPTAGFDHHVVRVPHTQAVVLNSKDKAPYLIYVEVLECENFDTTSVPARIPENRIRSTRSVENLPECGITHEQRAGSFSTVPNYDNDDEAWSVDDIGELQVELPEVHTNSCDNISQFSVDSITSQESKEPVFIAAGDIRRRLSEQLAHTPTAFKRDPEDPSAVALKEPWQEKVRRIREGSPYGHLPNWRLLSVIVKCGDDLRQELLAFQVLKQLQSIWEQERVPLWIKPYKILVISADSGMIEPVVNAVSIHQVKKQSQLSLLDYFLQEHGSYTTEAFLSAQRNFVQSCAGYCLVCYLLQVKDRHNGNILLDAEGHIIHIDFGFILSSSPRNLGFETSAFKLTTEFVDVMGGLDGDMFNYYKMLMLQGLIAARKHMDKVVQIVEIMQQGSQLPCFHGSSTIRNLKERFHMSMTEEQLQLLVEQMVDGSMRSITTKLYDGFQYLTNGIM
# UniProt Q9C098, sequence (whole entry, looked up): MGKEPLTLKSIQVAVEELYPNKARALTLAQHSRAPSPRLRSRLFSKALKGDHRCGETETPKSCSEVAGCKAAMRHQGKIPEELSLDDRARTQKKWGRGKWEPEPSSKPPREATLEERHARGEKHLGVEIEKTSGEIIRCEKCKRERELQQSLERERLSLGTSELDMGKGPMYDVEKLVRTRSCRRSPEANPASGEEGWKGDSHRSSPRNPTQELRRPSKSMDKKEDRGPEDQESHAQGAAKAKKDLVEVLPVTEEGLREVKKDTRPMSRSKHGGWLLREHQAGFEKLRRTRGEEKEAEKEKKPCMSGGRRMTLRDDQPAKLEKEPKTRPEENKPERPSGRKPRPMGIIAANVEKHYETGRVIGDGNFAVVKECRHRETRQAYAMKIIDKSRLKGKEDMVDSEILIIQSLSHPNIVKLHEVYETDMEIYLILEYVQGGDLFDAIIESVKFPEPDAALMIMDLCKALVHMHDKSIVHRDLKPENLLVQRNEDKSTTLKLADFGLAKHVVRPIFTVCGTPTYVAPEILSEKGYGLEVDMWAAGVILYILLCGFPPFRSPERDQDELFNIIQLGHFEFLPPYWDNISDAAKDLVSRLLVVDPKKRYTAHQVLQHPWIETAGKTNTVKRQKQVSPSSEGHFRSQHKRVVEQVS
# UniProt P41743, sequence (whole entry, looked up): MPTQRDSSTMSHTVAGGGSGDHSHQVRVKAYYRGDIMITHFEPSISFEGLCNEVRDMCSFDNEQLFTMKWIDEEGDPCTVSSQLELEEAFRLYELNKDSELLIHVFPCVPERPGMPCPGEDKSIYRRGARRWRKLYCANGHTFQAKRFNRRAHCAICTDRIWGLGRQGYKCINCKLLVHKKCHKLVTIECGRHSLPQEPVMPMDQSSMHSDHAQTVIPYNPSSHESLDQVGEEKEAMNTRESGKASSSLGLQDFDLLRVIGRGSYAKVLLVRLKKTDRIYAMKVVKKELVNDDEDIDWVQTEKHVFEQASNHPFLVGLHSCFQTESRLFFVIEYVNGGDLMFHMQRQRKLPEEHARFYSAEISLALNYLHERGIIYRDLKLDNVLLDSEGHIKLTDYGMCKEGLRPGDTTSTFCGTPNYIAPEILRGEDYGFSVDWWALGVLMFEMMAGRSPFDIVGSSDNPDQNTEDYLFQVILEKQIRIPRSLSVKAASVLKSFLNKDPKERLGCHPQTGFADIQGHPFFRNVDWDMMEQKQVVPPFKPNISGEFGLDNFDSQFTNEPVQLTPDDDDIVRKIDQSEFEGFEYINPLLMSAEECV
# UniProt Q13131, sequence (whole entry, looked up): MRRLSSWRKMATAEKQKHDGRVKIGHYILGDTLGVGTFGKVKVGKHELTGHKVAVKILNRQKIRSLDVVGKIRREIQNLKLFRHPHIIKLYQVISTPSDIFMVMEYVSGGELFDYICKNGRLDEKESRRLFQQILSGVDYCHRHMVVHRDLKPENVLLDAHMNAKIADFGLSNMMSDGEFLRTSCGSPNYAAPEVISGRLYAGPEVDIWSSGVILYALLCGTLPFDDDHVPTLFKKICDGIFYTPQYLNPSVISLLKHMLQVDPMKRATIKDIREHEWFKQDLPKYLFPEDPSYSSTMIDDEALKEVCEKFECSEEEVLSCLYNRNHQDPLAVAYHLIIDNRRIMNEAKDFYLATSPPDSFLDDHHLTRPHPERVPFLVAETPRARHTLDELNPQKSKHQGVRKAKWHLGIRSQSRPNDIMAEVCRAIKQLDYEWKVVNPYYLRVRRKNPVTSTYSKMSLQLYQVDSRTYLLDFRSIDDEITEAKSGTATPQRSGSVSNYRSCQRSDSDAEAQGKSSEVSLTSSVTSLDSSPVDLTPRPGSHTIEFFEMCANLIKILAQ

# Set 1 — effect on: peptide-MHC binding; molecule type: peptide; tested at: concentration not given
# Target: HLA class I histocompatibility antigen, C alpha chain, allele C*04:01 (Homo sapiens, UniProt P10321)
Molecule,binding
YTIGIGAFY,inactive
RLYQYSFAK,inactive
GLIPQWVTL,inactive
YTMELCGAM,inactive
YPFHIFYPV,inactive
FSFFMNENF,inactive
YTDKIAMSY,inactive
MPAYIRNTL,inactive

# Set 2 — effect on: cell-free assay; technique: competition with immobilised ligand; tested at: 1 µM
# Structure (SMILES): Cn1cncc1[C@@](O)(COc1ccc(C#N)cc1-c1ccc(OC(F)(F)F)cc1)c1ccc(C#N)cc1
target,remaining binding [%]
"Tyrosine-protein kinase JAK1, JH2 (JAK1, Homo sapiens, UniProt P23458)",92
"NEK10 (Homo sapiens, UniProt Q6ZWH5)",84
"Tyrosine-protein kinase ABL1, phosphorylated (ABL1, Homo sapiens, UniProt P00519, M351T)",6.2
"MAP3K20 (Homo sapiens, UniProt Q9NYL2)",85
"PRKAA1 (Homo sapiens, UniProt Q13131)",100
"ANKK1 (Homo sapiens, UniProt Q8NFD2)",100
"Tyrosine-protein kinase ABL1, non-phosphorylated (ABL1, Homo sapiens, UniProt P00519, T315I)",100
"STK35 (Homo sapiens, UniProt Q8TDR2)",100
"LATS2 (Homo sapiens, UniProt Q9NRM7)",100
"PI4KB (Homo sapiens, UniProt Q9UBF8)",80
"DCLK3 (Homo sapiens, UniProt Q9C098)",94
"PRKCE (Homo sapiens, UniProt Q02156)",100
"PRKCI (Homo sapiens, UniProt P41743)",100
"CSF1R (Homo sapiens, UniProt P07333)",85

# Set 3 — target: CCNA1, cyclin fold, Cln2 fusion (human); technique: yeast growth competition, sequencing; medium: yeast; notes: strong parent motif; baseline: not given; reading: higher = stronger binding
# Parent: viral docking peptide; YKVKRRLVFGADD; partner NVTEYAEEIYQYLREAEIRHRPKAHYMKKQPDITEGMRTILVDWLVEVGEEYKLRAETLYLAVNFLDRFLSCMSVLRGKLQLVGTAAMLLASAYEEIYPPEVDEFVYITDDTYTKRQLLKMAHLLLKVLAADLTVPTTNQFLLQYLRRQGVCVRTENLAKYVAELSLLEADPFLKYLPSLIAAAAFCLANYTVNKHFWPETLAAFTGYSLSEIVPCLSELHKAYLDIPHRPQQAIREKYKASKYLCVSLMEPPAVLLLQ
Change,normalised enrichment score
K4T,0.182
G10M,1.35
R6A,0.631
V3K,0.0215
R6Y,0.171

# Other studies, line by line
SMILES,target,effect on,action,tested at,baseline,measurement,value
O=C1NC(=O)c2c1c1c3ccccc3n3c1c1c2c2ccccc2n1[C@H]1CC[C@@H]3O1,"Serine/threonine-protein kinase pim-1 (PIM1, Homo sapiens, UniProt P11309)",enzyme activity,inhibitor,0.5 µM,control,remaining activity,0.435%

# Some of these lines once more (set 1):
Molecule,binding
YTIGIGAFY,inactive
MPAYIRNTL,inactive
YTDKIAMSY,inactive
YTMELCGAM,inactive
